Measurements of several laboratories.
Every numbered part comes from another study and shows a few of its results, in no order. Changes are numbered by the printed parent chain.

Series 1
Target: RING finger protein unkempt homolog, zinc fingers 1-6, GST-SBP tag (UNK, Homo sapiens, UniProt Q9C0B0, residues 30-357)
Chain of UniProt Q9C0B0 (30-357, looked up): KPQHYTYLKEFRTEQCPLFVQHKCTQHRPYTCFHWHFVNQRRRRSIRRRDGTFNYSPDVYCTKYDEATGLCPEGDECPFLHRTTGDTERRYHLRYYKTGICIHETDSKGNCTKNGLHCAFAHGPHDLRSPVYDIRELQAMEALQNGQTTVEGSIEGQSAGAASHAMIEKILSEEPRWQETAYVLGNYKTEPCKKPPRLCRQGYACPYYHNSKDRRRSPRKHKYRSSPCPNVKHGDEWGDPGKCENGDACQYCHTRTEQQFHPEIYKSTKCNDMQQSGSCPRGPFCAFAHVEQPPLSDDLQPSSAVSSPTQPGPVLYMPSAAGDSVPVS
Technique: RNA Bind-n-Seq
Form: RNA
Medium: in vitro
Tested at: not given
Setting: RNA with constant flanks, human and mouse sites, ends assumed
Reference: input RNA pool
Reading: higher = stronger binding
Measurement: bound/input enrichment
All sequences stand within: GGGAGUUCUACAGUCCGACGAUC … CAACAGAGGAUUGAGCAUCA
GCUGUGACCCAGAAUAAAACUAAUAUUUCAACAGCAAGUGCCACAGUUUCUGCUGCCACUAGUACUGAAAGCAUUUCUACUAGGAAAGUAUUGCCAAUGUCCAUUGCUAGACAUAAUAUA: 1.31 ratio
CUUGAGUCUCUGAAACAACAUCAAGAAACAAUUAAUACACUAAAAUCGAAAAUUUCUGAGGAAGUUUCCAGGAAUUUGCAUAUGGAGGAAAAUACAGGAGAAACUAAAGAUGAAUUUCAG: 0.294 ratio
GCGCGCCGGGGCGGGGGCAGCCCUCUCCCAGGCGGCGGUGGGGGCGGCGUCGCUGUUGCCCUUUUAAGCCGCGGGGCCACCGCCUCCUGCGGGUGGAGUCGGUUACAAAGGCAGCAGCCG: 0.258 ratio
UCUACGCCUGUGGAUGAUCGUAUUUCUUUGGAACAACCACCAAAUGGAAGUGACACCCCCAAUCCAGAGAAAUAUCAAGAAUCACCUGGAAUCCAGAUGAAGACAAGACUUAAAGAGGGG: 0.156 ratio
CGUAGGCAAGUUUGAGUUUUCUUUCCUUUGAUGCAGAUGCUUGGGUUUCCACUCUGGCUGCAUUGCAGUCGGCUCCCAGCCCUGCCGGCGUGGGCACAGAGGCCAGAGGGGCUCACUUGG: 0.198 ratio
UGCUGUGCGCUCCUGGGAGCUUGACGGAGGCUAAGCCUCCACGGUGCUGUGAGGGGUCCAUAGUAUUUUUUUGCUGCCUCUGAGUCCCCAAGGCCUUUAAGCAGAAGUGACAGUAGAUGC: 0.48 ratio
AAUAUGGAAAUUUAGUACAGGCUAGAGGUGUUUCCAAUUAACGAGUAAAAUGGAUUAUUCAGUAAAAGCAGUUGGCCCUCUGGAAAAUAGUAAAGCCAUGUAUGUGCCUCACUCUUUAUG: 0.675 ratio
UCCACGUCAGAAGACAAUCGCCCUUUAACUGGACUUGCAGCUGCAAUUGCGGGAGCAAAACUUAGGAAAGUGUCCCGGGUGGAGGAUGGCUCUUUCCCAGGUGGAGGGAAUACUGGGAGU: 0.196 ratio
GUUGUUCUUGUAGUGUUUGUUGCUAUUGUUAGAAAGAUUAUUAGUGAUAUGUGGGGUGUCUUAGCUAAACAACAGACACAUGUAAGAAAACACCAGUUUGAUCAUGGAGAGCUGGUUUAC: 9.45 ratio
GGGAUUUUGGACCAGGGGGAGGGUGUCCUGAUUAUUUUCGAUGAACCCCCAGUAGAUAAAACUUACGAAGCUGCUCUGGAAACAAUUCAGAACAUGAGCAAAGUAGUGGAUUCCCUCUAC: 1.73 ratio
GCAUAAAAAGCACAAUUGCUAGGACUUCAGUUUUUACUUCAGACUAAAGCUACCCAAGGACUUAGCAGAUAUGGGGGUUACAUCAGUGCUGGUCAUUGUAGCCUGAGUAUACAAUCAAGC: 0.211 ratio

Series 2
Target: Interferon regulatory factor 7, full length, phosphomimetic (IRF7, Homo sapiens, UniProt Q92985, residues 1-503, S471D/S472D/S475D/S476D/S477D/S483D/S484D/S487D)
Chain of UniProt Q92985 (whole entry, unmodified, looked up): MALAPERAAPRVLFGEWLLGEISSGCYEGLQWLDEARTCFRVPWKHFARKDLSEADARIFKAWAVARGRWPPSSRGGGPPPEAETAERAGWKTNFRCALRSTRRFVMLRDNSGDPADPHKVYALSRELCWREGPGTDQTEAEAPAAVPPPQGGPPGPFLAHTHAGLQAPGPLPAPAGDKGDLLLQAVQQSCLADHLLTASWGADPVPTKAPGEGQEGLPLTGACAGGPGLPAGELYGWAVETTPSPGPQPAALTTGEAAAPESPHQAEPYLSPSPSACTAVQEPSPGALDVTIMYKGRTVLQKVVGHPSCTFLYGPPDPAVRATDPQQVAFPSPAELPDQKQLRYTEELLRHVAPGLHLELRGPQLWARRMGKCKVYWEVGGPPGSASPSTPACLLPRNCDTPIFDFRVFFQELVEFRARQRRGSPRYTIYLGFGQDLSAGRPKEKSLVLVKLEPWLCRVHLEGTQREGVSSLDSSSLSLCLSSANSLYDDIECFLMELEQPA
Technique: protein-binding microarray
Form: double-stranded DNA, one strand shown
Medium: in vitro
Tested at: 2200 nM top
Setting: 60-bp whole probe
Together with: salmon DNA 0.4 mg/ml
Reference: random background probes
Reading: higher = stronger binding
Measurement: fitted relative affinity
All sequences stand within: GCCTAGCAC … GTCTTGATTCGCTTGACGCTGCTG
TCATTTTTTTACTTCGGACTGTGCTAG: 1.53 z-score
CCTACCGCCCTTACCGCCGCGTGCTAG: -0.0142 z-score
TTAGGTAACCTTTTCCTTTAGTGCTAG: 0.82 z-score
TTAGGTTTCCGTATCCTTTAGTGCTAG: 3.11 z-score
TTAGGTATCCTACTCCTTTAGTGCTAG: 0.99 z-score
GACGATATCCGGTTTCGAGACGTGCTA: 3.23 z-score
TTAGGACTCGACTTTCGGTTAGTGCTA: 5.99 z-score
TTAGCTATCAGACTGGATTAGTGCTAG: -0.137 z-score
TGTAGAGTAGCTTTCTGAGGGTGCTAG: -0.119 z-score
TCAATTTTCATTTTGTGACTGTGCTAG: 5.44 z-score
GACGATATCGGGACTGGCGACGTGCTA: -0.317 z-score
TTAGGTCTCCTTCTCATTTAGTGCTAG: 0.778 z-score
GACGTTTTCGGGTTTCGGGACGTGCTA: 9.34 z-score
TTAGTTTTCCTACTGCTTTAGTGCTAG: 1.83 z-score
AAATCTAAAAAGTCTCTGGGAGTGCTA: -1.03 z-score
TTAGGACTGCTTCTCCTTTAGTGCTAG: 0.862 z-score
TTCTTTTTTTTCTTTAAAAGGTGCTAG: 2.13 z-score
TTAGGTATCGACACTGGGTTTGTGCTA: 0.038 z-score
TTCGATCTCAGTTTCGATTAGTGCTAG: 5.92 z-score
TCACCCCTCTCTTTCCAACTGTGCTAG: 2.09 z-score
TCATTTTTCTATATGCAACTGTGCTAG: 3.06 z-score
GACGGACGGCTTTTCCTGACGTGCTAG: -0.295 z-score
GACGATTTCGGGTTCCGAGACGTGCTA: 5.14 z-score
TTAGGTATCCTTTTCCTCTAGTGCTAG: 1.44 z-score
TCAGAAATTCCTCTGAGACTGTGCTAG: -0.212 z-score

Series 3
Target: PABPC1L2, full length, GST fusion (mouse, UniProt A0ABA7IW68)
Technique: RNAcompete
Form: RNA
Medium: in vitro
Tested at: 20 nM
Setting: 7-mer, probes averaged, single round
Reference: mean of 7-mers
Reading: higher = stronger binding
Measurement: 7-mer Z-score
Residues (chain): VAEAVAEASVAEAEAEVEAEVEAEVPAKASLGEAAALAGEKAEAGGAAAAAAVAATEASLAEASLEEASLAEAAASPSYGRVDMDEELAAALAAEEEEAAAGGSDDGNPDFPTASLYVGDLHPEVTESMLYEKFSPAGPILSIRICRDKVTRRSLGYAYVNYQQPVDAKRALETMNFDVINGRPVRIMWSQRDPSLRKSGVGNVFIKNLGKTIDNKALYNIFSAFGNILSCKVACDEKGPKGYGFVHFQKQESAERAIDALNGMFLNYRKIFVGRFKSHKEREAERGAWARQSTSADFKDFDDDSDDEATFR
UCACUUA: -0.255
AGUUGUU: -0.291
AGAUGUA: -0.13
AACACCC: 0.0768
ACCAGGG: -0.0554
UCGUAGU: -0.38
GUAAUUC: -0.222
CGGGUUA: 0.0152
CAUAUUG: -0.0772
AGAAACG: 0.481
ACCGGCU: -0.15
AAUACUG: 0.189
CCAUCUU: -0.329
CACAUAA: 0.361
AGAACCU: -0.237
UAAUACG: -0.121
GACACCG: -0.124
AGGGGAU: 0.428
CCUGUAU: -0.293
AAAGCAU: 0.914
GUCGAAU: -0.204
GUGAAAA: 3.59

Series 4
Target: CCND2, cyclin fold, Cln2 fusion (human)
Technique: yeast growth competition, sequencing
Medium: yeast
Setting: weak parent motif
Reference: not given
Reading: higher = stronger binding
Measurement: normalised enrichment score
Starting sequence: WEE1 docking peptide (human); HKTFRKLRLFDTP
R8P: -0.118
K2C: -0.279
H1T: 0.356
K6W: 0.172
H1P: 0.512
F4D: -0.0694
D11E: 0.0385
L9M: -0.0511
R5V: -0.567
T3C: -0.361
T3I: -0.223
F4V: -0.0109
D11C: 0.276
K6F: -1.07
P13K: 0.104
R5G: -0.217

Series 5
Target: RNA binding protein fox-1 homolog 2, RRM domain, GST-SBP tag (RBFOX2, Homo sapiens, UniProt O43251-10, residues 100-194)
Technique: RNA Bind-n-Seq
Form: RNA
Medium: in vitro
Tested at: 365 nM
Setting: natural RNA segment, single round, ends assumed
Reference: no-protein control
Reading: higher = stronger binding
Measurement: RBNS enrichment (R)
All sequences stand within: GGGAGUUCUACAGUCCGACGAUC … UGGAAUUCUCGGGUGCCAA
Residues (chain): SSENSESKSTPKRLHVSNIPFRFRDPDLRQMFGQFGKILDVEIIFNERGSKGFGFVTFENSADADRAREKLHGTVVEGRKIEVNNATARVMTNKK
UAGUCAGAUGCUUACAACUAUUUAUAAUGCAUCAAUUUGAACUUAGAAGGUAGGAGAUCAGAUCAUAUGUGGGAAAAUGUAAAAGCAGGGAUAUCAGUGGGCAUUAGAAU: 0.902
UUGGCCCUAUCCUCUCCAUUAGCUCCUUCCGGGUUUGGACCAUUCCCCCCACUCCCUACCCUUAAUCCCCACAUGGGAAGAAGCUAUCAUCACAGGUACAAACAUCGCUU: 0.544
UGAGAUUUGGGUGGGGACAUAGCCAAACCAUAUCAUUCUACCCCUGGCCCCUCCAAAUCUCAUGUCCUCACUAUUCAAAACCAAUCAUGCCUUCCUAACAGUCCCCCAAA: 1.01
CAUGAAAAAUAUGACUAACCUGUGGUGUGUCCAUUCUUCCUUAUAGGAAUUUCCUGAGUUUGCAGGAGACAUGAGAGCAGUUUUUAGCGAGUAUUUUAGUGGGAAGUUGC: 0.377
CUGGAGCUUCUGGGCGCAAGUUACAGACAUCAUAACCACUGAUCCUAACACACAUAACCAUCAGCCAGAAGAUGCCGCAUGCUCCCCUGUGUCUGGAGGAUUUUGUCACC: 5.22
UUUAAACUCCCCCCUCCCUUUUUGGUAGCUGUUUUCUCCGUCCUCUCUCCACCUGCCCUCUUAUCUAGGAGCUGUUUGUAAGCACGAUUUUUUUAACAGGUUAUAUUGUA: 1.44
UCAGGUACAAUUUUUGUGUAAUAAAAGCCAGUGCAUUAAGUUUAUAUAGACUACUUUCUAUGCAAGACUGAGAUAUGGAAUAGAUAGGAAGAGAUAUGUACUGCUGGGUA: 0.446
AGCCUGGCAGGGCACAGUUUCUAGAGGGCCCGUCCCCAGCCCGGGCCGUCCAUCCUCGCAUUGCUGUUGAAUGGUGAGCACGUGACCAUGCCGACCACAAAGGUGUCUGC: 1.48
CGUUGGGUCCACGCCUCCACCGCCCCAUCUUGCCCCAAACGGAAAGCGCUGUAUCUGCAGUGGCAGCCCUUCCCCACUUCGGCUCUGGGAGGGUCCAGCCAGUGUCACCU: 0.276
GCCUCAGAAGGAAAGCCAGGGGCAAGCAAAGGAGACCAAAAUUUCUUGGGGAAGAUUUUUCACGCAGCCCUAAGUGCCCAAGCACAUUUUCCCUGGUUGCCUCCUGGGCC: 0.382
UUUCUCCUCUCCAGUUUCUCUCUUGAAAGUCAAACAGUUUUGUAGUUGAAGCAGUCCGUGUGCAAAGCCUGCAUCUAAACACUUGCGUUAAUAAGUCAUUAACCGCUCAG: 0.39
AUCCAACUAAAAAUUACGCUAUCUAGAAUUGUACCAACCAAAAUCUCGUAUUGGCAGAUCUUGACAGGCUGGACCUGCAAGAUGUGGCUUGAAUUUUAACCAUUUAUUAC: 0.403

Series 6
Target: Histone acetyltransferase KAT6A, winged helix 2, GST fusion (KAT6A, Homo sapiens, UniProt Q92794, residues 85-181)
Technique: protein binding microarray
Form: double-stranded DNA, one strand shown
Medium: in vitro
Tested at: not given
Setting: 8-mer, flanks averaged, mean of 2 arrays, mostly near background
Reference: not given
Reading: higher = stronger binding
Measurement: E-score
Construct (chain): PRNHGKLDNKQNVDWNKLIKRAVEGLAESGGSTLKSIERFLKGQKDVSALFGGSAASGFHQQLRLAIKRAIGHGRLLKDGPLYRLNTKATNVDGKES
CCACTCAC: 0.156
CGCCGGAA: 0.272
AGCTTGTC: 0.0805
TGCCGCAA: 0.0772
CAAGGAAC: 0.134
GCCGGGCC: 0.197
ACGCCTAG: 0.0135
ACTCGACC: 0.0629
ATTCAACC: -0.0241
CAAAGGTA: -0.063
CCCCCACC: -0.0384
AAAGGCAG: -0.00626
GCCAAGGA: -0.175
AAATGACG: -0.142
AGAACGCC: 0.0244
ATAGACGA: -0.132
GCCTTCAC: 0.185
AGGCGCCC: 0.0794
CAAGTATG: -0.0595
ATTCAGTC: -0.0553
CAGCCATG: 0.00456
GCAATGAA: 0.0371
AGCATTAG: -0.0169
ACGCACAG: 0.0756
CGCTGACC: 0.184

Some of these lines once more (series 2):
TTAGGTTTCCGTATCCTTTAGTGCTAG: 3.11 z-score
TTAGGTATCCTACTCCTTTAGTGCTAG: 0.99 z-score
GACGATATCCGGTTTCGAGACGTGCTA: 3.23 z-score
TTAGGACTCGACTTTCGGTTAGTGCTA: 5.99 z-score
TTAGCTATCAGACTGGATTAGTGCTAG: -0.137 z-score
TGTAGAGTAGCTTTCTGAGGGTGCTAG: -0.119 z-score
TCAATTTTCATTTTGTGACTGTGCTAG: 5.44 z-score
GACGATATCGGGACTGGCGACGTGCTA: -0.317 z-score
TTAGGTCTCCTTCTCATTTAGTGCTAG: 0.778 z-score
GACGTTTTCGGGTTTCGGGACGTGCTA: 9.34 z-score
TTAGTTTTCCTACTGCTTTAGTGCTAG: 1.83 z-score
AAATCTAAAAAGTCTCTGGGAGTGCTA: -1.03 z-score
TTAGGACTGCTTCTCCTTTAGTGCTAG: 0.862 z-score
TTCTTTTTTTTCTTTAAAAGGTGCTAG: 2.13 z-score
TTAGGTATCGACACTGGGTTTGTGCTA: 0.038 z-score
TTCGATCTCAGTTTCGATTAGTGCTAG: 5.92 z-score
TCACCCCTCTCTTTCCAACTGTGCTAG: 2.09 z-score
TCATTTTTCTATATGCAACTGTGCTAG: 3.06 z-score
